Measurements pooled from the literature.
Parts stem from different laboratories: compare values within a part only.

Set 1 — technique: universal PBM; molecule type: double-stranded DNA, one strand shown; sample: in vitro; concentration: 600 nM; direction: higher = stronger binding; measurement: E-score
Target: Sal-like protein 4, full length isoform A (SALL4, Homo sapiens, UniProt Q9UJQ4, residues 1-1053)
UniProt Q9UJQ4, sequence (whole entry, looked up): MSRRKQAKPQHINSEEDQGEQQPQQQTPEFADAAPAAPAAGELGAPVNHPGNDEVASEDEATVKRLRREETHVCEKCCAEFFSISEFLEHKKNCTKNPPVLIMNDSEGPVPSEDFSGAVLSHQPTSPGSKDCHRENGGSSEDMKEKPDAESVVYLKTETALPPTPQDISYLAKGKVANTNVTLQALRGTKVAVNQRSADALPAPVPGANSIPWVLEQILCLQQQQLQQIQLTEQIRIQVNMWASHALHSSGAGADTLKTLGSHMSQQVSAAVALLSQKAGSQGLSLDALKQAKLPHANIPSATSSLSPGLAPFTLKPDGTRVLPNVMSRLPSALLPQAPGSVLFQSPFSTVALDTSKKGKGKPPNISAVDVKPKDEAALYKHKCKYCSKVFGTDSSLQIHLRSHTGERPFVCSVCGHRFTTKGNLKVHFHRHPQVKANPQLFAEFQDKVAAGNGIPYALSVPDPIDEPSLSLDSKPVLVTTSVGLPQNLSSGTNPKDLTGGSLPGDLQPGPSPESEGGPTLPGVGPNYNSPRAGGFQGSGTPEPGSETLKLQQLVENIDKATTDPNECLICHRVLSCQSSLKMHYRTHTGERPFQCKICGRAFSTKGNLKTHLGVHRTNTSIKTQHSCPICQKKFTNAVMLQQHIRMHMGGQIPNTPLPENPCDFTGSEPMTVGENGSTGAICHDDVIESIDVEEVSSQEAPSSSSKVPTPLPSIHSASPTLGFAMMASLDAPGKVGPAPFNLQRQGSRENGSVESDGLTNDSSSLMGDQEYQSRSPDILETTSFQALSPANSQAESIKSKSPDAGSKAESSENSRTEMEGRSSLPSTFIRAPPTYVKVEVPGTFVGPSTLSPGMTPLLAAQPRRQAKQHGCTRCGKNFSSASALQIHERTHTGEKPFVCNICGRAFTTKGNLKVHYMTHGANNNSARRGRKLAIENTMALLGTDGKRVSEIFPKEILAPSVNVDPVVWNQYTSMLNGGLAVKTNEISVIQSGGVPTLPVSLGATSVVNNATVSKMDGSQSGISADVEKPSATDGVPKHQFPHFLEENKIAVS
Notes: 8-mer, flanks averaged, mean of replicates
ACGGCTGG: -0.327
GTAGGGGA: -0.189
CGTGCCTA: -0.167
AAACTGAT: 0.0956
TCCGATCA: 0.0297
CACTAGTC: -0.184
AGTTACGC: -0.0515

Set 2 — technique: protein-binding microarray; molecule type: double-stranded DNA, one strand shown; sample: in vitro; concentration: 2540 nM top; notes: 60-bp whole probe; together with: salmon DNA 0.4 mg/ml; baseline: random background probes; direction: higher = stronger binding; measurement: fitted relative affinity
Target: Interferon regulatory factor 3, full length, phosphomimetic (IRF3, Homo sapiens, UniProt Q14653, residues 1-427, S386D/S396D/S398D/S402D/T404D/S405D)
UniProt Q14653, sequence (whole entry, unmodified, looked up): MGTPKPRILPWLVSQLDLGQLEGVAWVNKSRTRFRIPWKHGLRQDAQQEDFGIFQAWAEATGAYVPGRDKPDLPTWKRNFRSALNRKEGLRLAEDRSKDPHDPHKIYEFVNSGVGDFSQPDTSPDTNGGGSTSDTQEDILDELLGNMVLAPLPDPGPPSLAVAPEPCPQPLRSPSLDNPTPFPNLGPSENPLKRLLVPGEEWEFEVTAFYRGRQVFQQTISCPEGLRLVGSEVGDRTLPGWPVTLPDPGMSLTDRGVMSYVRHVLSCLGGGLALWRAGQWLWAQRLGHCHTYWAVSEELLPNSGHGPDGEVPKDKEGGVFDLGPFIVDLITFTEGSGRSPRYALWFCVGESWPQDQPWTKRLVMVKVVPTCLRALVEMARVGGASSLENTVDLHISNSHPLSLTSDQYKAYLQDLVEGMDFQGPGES
GCCTAGCACTTAGATCTCAGACTTGATTAGTGCTAGGTCTTGATTCGCTTGACGCTGCTG: 0.0844 z-score
GCCTAGCACTTTGGTTTCGGACTGGGTTAGTGCTAGGTCTTGATTCGCTTGACGCTGCTG: 4.74 z-score
GCCTAGCACTTAGGTTTCCTTCTCCTTGAGTGCTAGGTCTTGATTCGCTTGACGCTGCTG: 10.4 z-score
GCCTAGCACGTCGATTTCAGTATCGAGACGTGCTAGGTCTTGATTCGCTTGACGCTGCTG: 3.38 z-score

Set 3 — technique: RNAcompete; molecule type: RNA; sample: in vitro; concentration: 20 nM; notes: 7-mer, probes averaged, single round; baseline: mean of 7-mers; direction: higher = stronger binding; measurement: 7-mer Z-score
Target: PABPC1L2, full length, GST fusion (mouse, UniProt A0ABA7IW68)
Target sequence (chain): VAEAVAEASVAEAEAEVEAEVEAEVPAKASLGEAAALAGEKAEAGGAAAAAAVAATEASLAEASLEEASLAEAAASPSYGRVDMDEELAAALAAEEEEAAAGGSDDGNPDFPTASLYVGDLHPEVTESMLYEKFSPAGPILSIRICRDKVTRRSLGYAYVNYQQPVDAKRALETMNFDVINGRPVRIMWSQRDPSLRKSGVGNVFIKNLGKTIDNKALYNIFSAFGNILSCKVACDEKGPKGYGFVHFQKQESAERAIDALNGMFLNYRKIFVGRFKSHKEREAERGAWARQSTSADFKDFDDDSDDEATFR
CUUUGAC: -0.229
CCGUUUC: -0.507
GUGAGAC: -0.164
GGAGCGA: 0.678
AUUAGAC: -0.146

Single results of other studies
PhoQ, residues 284 288 289 292 302 303 AGHLVA
fold induction (PhoP, residues 12 14 15 18 19 NIMAP (Escherichia coli, UniProt P23836); Sort-seq, measured: YFP reporter; E. coli; PhoQ-PhoP variant library, together with: 10 µM Mg2+; baseline: high Mg2+ state, higher = stronger signaling): 1.26

For quick reference, copied from above (set 1):
AGTTACGC: -0.0515
